# Results gathered from unrelated publications.
# Protocols differ between the studies behind these lines. ± marks the error that the study gave.
# UniProt Q86TI2, sequence (whole entry, looked up): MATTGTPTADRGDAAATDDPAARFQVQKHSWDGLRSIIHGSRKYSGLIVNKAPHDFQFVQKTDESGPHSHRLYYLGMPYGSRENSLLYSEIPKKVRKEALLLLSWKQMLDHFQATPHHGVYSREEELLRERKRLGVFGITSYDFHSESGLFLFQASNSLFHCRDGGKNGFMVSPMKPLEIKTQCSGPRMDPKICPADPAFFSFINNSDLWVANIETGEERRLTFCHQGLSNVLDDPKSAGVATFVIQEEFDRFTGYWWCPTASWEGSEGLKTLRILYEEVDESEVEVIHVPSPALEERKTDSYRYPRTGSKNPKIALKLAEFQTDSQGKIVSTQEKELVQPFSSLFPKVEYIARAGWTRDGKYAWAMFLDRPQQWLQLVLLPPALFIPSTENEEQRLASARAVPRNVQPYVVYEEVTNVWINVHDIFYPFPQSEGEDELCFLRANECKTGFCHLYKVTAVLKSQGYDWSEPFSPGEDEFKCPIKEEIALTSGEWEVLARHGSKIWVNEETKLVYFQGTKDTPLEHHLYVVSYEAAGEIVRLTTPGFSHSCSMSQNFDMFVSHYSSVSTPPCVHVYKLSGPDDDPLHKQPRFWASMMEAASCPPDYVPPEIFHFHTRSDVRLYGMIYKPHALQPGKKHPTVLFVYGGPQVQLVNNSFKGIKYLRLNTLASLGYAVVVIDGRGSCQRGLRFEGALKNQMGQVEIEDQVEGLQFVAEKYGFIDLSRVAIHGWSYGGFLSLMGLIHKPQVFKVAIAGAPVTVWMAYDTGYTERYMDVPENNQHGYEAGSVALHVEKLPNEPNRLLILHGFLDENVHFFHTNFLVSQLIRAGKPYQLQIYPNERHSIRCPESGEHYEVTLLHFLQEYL
# UniProt Q13619, sequence (whole entry, looked up): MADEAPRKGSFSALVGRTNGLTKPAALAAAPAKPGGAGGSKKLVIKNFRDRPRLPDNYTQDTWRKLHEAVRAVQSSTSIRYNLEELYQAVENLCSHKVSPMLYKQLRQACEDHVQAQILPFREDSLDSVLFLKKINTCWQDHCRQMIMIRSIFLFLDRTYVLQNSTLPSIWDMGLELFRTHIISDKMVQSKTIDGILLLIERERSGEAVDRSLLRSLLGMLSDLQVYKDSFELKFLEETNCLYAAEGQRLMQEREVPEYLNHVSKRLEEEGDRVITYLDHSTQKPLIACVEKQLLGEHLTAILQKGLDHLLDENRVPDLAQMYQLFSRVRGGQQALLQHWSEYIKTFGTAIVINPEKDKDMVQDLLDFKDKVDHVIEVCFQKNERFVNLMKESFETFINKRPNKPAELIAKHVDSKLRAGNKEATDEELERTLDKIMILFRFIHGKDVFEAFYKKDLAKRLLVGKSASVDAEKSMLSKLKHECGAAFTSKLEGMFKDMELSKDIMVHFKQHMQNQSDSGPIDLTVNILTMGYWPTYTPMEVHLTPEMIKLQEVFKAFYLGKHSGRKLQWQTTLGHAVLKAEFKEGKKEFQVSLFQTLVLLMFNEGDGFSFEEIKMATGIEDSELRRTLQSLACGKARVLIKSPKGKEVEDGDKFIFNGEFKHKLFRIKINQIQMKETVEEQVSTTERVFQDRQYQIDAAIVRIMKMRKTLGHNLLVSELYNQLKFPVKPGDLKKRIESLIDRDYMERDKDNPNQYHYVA
# UniProt P53341, sequence (whole entry, looked up): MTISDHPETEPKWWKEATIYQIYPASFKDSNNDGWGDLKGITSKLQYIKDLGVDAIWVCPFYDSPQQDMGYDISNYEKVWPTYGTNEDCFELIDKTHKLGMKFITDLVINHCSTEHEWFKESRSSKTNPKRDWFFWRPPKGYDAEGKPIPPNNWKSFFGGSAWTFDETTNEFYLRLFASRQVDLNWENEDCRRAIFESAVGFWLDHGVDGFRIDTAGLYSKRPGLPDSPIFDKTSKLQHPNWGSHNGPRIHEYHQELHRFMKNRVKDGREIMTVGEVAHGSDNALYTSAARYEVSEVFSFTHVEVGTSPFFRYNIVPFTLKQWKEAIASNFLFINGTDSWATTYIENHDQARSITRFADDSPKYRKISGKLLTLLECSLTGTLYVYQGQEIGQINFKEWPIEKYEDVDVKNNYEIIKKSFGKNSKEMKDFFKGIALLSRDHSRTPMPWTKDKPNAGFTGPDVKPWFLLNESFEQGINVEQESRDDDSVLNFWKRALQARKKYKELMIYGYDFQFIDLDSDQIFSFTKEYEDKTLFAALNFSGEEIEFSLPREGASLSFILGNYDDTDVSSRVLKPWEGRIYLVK
# UniProt Q61143, sequence (whole entry, unmodified, looked up): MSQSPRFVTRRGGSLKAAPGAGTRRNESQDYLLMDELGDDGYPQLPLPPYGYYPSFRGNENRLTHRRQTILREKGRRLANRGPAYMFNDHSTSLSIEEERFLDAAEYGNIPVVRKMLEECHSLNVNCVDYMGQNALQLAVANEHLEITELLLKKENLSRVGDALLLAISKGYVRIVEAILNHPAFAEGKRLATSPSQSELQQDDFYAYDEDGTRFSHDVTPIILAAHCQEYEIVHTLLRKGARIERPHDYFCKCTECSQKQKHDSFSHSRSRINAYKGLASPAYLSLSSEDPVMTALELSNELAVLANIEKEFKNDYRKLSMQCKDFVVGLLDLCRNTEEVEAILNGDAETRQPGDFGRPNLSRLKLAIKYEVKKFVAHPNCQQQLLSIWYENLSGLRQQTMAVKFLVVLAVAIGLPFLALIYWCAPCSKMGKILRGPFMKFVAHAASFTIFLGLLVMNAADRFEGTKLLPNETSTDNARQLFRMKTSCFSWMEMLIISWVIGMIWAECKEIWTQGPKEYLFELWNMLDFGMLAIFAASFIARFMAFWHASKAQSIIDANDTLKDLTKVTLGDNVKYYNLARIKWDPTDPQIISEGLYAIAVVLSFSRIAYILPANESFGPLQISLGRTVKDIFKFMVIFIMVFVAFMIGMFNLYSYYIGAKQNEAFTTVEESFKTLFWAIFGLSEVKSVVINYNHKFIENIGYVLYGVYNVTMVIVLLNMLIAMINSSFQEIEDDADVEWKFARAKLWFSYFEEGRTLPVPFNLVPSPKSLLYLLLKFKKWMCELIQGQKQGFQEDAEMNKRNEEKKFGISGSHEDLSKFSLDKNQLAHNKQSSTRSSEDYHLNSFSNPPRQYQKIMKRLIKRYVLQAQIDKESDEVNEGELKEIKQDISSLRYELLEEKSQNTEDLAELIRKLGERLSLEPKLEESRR
# UniProt P03951, sequence (whole entry, looked up): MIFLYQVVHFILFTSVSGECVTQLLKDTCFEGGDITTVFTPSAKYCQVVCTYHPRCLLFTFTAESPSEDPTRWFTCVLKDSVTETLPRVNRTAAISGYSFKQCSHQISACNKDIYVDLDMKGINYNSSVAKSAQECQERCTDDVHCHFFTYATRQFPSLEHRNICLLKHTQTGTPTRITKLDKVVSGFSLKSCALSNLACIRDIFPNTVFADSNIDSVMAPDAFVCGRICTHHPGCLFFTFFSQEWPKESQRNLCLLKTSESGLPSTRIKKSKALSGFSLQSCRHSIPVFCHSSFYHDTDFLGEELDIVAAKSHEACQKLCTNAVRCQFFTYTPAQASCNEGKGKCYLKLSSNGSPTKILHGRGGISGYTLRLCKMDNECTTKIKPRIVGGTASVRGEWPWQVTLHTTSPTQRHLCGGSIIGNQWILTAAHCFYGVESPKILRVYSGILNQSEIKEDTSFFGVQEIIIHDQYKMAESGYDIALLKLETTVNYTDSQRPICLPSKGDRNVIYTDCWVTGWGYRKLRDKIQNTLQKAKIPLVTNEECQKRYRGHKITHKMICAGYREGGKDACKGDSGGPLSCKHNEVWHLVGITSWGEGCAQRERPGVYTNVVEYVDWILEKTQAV
# UniProt Q9Y294, sequence (whole entry, looked up): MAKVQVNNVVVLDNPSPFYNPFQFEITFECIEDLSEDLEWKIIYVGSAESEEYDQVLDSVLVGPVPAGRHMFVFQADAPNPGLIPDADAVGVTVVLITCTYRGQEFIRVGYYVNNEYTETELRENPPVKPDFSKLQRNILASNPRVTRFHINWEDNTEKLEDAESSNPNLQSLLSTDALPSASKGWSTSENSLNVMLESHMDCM
# UniProt P50750, sequence (whole entry, unmodified, looked up): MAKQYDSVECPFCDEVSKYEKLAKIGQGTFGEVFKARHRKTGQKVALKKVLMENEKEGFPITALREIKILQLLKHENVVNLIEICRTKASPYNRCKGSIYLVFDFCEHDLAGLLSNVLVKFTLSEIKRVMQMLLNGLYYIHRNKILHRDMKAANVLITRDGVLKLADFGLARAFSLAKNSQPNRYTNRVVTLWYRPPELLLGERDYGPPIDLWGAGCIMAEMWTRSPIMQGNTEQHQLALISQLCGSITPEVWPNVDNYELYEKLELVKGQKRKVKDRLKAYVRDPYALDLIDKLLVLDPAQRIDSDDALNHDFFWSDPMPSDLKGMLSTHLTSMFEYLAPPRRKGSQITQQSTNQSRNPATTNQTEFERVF
# UniProt P21397, sequence (whole entry, looked up): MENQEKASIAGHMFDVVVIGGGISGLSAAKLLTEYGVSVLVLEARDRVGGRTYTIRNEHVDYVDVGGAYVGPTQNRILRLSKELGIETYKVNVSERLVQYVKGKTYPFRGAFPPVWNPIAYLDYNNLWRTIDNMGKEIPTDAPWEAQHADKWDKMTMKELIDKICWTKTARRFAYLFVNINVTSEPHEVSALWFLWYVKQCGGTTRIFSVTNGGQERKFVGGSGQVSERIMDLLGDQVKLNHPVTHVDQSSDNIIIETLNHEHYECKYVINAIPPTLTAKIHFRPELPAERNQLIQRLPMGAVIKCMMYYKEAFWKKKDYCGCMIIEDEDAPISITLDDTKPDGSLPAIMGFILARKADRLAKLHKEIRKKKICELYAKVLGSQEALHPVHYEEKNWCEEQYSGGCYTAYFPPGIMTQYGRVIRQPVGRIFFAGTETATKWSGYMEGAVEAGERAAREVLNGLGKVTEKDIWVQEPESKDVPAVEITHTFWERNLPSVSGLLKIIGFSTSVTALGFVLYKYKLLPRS
SMILES,target,test,setting,endpoint,result
O=c1c(Oc2ccccc2)c(C(F)(F)F)oc2c(O)c(O)ccc12,"Cullin-4A, in CRL4-CRBN complex (CUL4A, Homo sapiens, UniProt Q13619)","CK1α ubiquitination by CRL4-CRBN, inhibitor",,inhibitory concentration,30 µM
O=C(c1cc2c(s1)CCCCC2)N1CCC(n2c(=O)[nH]c3ccccc32)CC1,"Short transient receptor potential channel 6 (Trpc6, Mus musculus, UniProt Q61143, N701Q)","ion current, agonist, whole-cell patch clamp","100 µM, N701Q mutant",maximal current density,0.86 ± 0.59 pA/pF
CCC1(CC)C(=O)N(c2cccc(CN3CCN(C)CC3)c2)C1=O,"Dipeptidyl peptidase 9 (DPP9, Homo sapiens, UniProt Q86TI2)","inhibitor, Morrison equation",,Ki,inactive
O=C1Nc2ccc(F)cc2/C1=N/N=C/c1cccc(OCc2ccccc2)c1,"Amine oxidase [flavin-containing] A (MAOA, Homo sapiens, UniProt P21397)","enzyme activity, inhibitor",10 µM,remaining activity,35.9%
O=C(c1ccc(O)cc1)C1(O)Oc2cc(O)cc(O)c2C1=O (centres unmarked),laccase (Trametes versicolor),substrate,product formation,Km,8.29 ± 0.401 mM
CC[C@H](C)[C@H](NC(=O)[C@H](CCCNC(=N)N)NC(=O)NC[C@H](CCC(N)=O)NC(=O)NC[C@H](CC(C)C)NC(=O)NC[C@H](CCCNC(=N)N)NC(=O)NC[C@H](Cc1ccc2ccccc2c1)NC(=O)[C@H](CCCNC(=N)N)NC(=O)[C@H](CCC(=O)O)NC(C)=O)C(=O)N[C@@H](C)C(N)=O,"Histone chaperone ASF1A (Homo sapiens, UniProt Q9Y294)",isothermal titration calorimetry,"concentration not given, pH 7.5, 20 °C",binding stoichiometry,1.1 ± 0.1
Clc1ccc2ccc3[n+](c2c1)[Ir-3]12([c]4ccccc4-3)([c]3ccccc3-c3ccc4ccc(Cl)cc4[n+]31)[n+]1ccccc1-c1cccc[n+]12.F[P-](F)(F)(F)(F)F,"Cyclin-dependent kinase 9 (CDK9, Homo sapiens, UniProt P50750)",isothermal titration calorimetry,25 °C,ΔG,-9.38 kcal/mol
OC[C@H]1O[C@@H](Oc2ccc(-c3cn([C@H]4[C@H](O)[C@@H](O)[C@H](c5cn([C@H]6[C@H](O)[C@@H](O)[C@H](n7cc(-c8ccc(O[C@@H]9O[C@H](CO)[C@H](O)[C@H](O)[C@H]9O)cc8)nn7)O[C@@H]6CO)nn5)O[C@@H]4CO)nn3)cc2)[C@H](O)[C@@H](O)[C@H]1O,"PA-I galactophilic lectin (lecA, Pseudomonas aeruginosa, UniProt Q05097)",isothermal titration calorimetry,298 K,-TΔS,7.1 ± 0.6 kcal/mol
C=C1C(=O)O[C@@H]2[C@H]3C(CO)=CC(=O)C3=C(C)C[C@H](OC(=O)Cc3ccc(O)cc3)[C@@H]12,"Alpha-glucosidase MAL12 (MAL12, Saccharomyces cerevisiae S288c, UniProt P53341)",circular dichroism,65.22 µM,random coil content,31.1%
Cc1ccc(C(=O)Nc2ccc(CP(=O)(O)O)cc2CP(=O)(O)O)cc1NC(=O)c1cccc(NC(=O)Nc2cccc(C(=O)Nc3cc(C(=O)Nc4ccc(CP(=O)(O)O)cc4CP(=O)(O)O)ccc3C)c2)c1,"Coagulation factor XI (F11, Homo sapiens, UniProt P03951)","enzyme activity, inhibitor","50 µM, with: S-2366 substrate",Vmax,50 ± 2.5 mAU/min
CC[C@H](C)[C@H](NC(C)=O)C(=O)N[C@H]1CSSC[C@@H](C(=O)N(C)[C@H](C(N)=O)[C@@H](C)CC)NC(=O)[C@H](CCCNC(=N)N)NC(=O)[C@H](Cc2c[nH]cn2)NC(=O)[C@H](C)NC(=O)CN(C)C(=O)[C@H](Cc2c[nH]c3ccccc23)NC(=O)[C@H](CC(=O)O)NC(=O)[C@H](CCC(N)=O)NC(=O)[C@H](Cc2cn(C)c3ccccc23)NC(=O)[C@H](C(C)C)NC1=O,"Complement C3 (Homo sapiens, UniProt P01024)",ITC,concentration not given,ΔG of binding,-11.4 kcal/mol
